Measurements pooled from the literature.
Every numbered part comes from another study and shows a few of its results, in no order. Substitutions count along the parent as printed.
Sequence of UniProt P61088 (whole entry, looked up): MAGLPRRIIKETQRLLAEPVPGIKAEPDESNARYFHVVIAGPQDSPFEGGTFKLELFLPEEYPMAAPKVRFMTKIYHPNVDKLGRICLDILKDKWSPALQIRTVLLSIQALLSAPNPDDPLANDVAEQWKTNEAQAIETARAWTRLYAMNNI
Sequence of UniProt Q5VVX9 (whole entry, looked up): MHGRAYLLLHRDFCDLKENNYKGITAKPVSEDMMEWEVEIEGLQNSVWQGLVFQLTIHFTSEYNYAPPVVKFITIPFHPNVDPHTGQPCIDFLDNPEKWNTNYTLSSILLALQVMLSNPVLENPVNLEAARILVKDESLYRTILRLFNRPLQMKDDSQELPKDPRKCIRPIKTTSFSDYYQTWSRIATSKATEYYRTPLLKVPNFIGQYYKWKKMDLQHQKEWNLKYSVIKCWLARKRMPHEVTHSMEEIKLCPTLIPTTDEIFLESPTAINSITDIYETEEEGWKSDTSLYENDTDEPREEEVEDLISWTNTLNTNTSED
Sequence of UniProt P61077 (whole entry, looked up): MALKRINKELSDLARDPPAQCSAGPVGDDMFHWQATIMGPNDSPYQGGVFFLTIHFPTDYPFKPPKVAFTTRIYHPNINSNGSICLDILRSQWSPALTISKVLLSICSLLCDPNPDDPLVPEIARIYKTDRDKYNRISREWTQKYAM
Sequence of UniProt O14933 (whole entry, looked up): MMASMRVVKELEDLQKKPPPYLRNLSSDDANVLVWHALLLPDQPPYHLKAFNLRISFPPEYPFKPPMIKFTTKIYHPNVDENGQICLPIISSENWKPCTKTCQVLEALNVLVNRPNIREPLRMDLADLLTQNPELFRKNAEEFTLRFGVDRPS
Sequence of UniProt Q96LR5 (whole entry, looked up): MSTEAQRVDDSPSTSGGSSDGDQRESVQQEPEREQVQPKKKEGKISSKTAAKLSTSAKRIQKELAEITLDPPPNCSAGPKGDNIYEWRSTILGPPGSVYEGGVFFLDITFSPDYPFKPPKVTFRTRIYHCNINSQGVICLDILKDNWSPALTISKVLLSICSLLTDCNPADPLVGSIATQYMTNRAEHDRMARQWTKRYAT

Block 1 — method: EMSA with sequencing; molecule type: double-stranded DNA, one strand shown; medium: in vitro; concentration: 10 and 20 nM; reference: negative control set to 0; direction: higher = stronger binding; endpoint: normalised bound fraction
Target: Hepatocyte nuclear factor 3-alpha (Foxa1, Mus musculus, UniProt P35582, residues 1-468, full length assumed)
Setting: whole designed probe, mean of two concentrations, ends assumed
Shared flanks, not repeated: GTGAGCGGTGCCCATTGATGGGGAAC … TTTCACTGGGATCGTGGGGAC
Residues (chain): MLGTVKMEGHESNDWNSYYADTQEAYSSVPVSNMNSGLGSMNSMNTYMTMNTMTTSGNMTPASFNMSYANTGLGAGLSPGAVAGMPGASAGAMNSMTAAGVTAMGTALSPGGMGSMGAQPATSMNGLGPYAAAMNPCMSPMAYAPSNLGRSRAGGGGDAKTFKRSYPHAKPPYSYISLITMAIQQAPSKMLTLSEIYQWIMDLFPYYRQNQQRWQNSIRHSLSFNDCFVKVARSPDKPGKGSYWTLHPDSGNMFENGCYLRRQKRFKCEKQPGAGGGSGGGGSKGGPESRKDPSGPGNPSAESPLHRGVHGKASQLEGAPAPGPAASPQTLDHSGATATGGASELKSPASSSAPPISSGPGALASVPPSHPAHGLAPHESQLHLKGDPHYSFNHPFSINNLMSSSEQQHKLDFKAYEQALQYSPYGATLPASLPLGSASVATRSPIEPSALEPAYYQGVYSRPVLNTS
Sequence = AATTAAAAAAGAATAAATGTCAGTAGAACCTCATTAAGACAGGTCTGACATTTTAAATAAAATAGGAGAAAAATCCATGAATATTAAATCCCTGTTTACTTATCTTTCTGTAATATTTGTGATATGAATTTCTTCCAGGCATCCCATCTTTCACACATAATTTAACACTTGCATTACCTTACTTCCTCTAACC; value = 0.366 ratio
Sequence = ATCTTCCCCCTCTTCCTTGCCCCACCAGCTCACCTTCCCGGGTTGTTTACTTTGAGTATTTATTTTCAAGCCGGCATTCGTTAACCCTCTTCTGGCGCAAACTGCTGTTTGCTCTGGATGAATCATGGTCCTTTGGCGACGCCAGGCTCCGGGAGAGCAAAGCACCGTGTCAGGGCCATGATCCGGGGTGGCC; value = 0.349 ratio
Sequence = ATCTTCCCCCTCTTCCTTGCCCCACCAGCTCACCTACGGGGGTTATTTGCAGATAGGAAAATAAATAAAGCCGGCATTCGTTAACGCAGTTCTGGCGCAAACTGCTGTTTGCTCTGGATGAATCATGGTCCTTTGGCGACGCCAGGCTCCGGGAGAGCAAAGCACCGTGTCAGGGCCATGATCCGGGCTCGCC; value = 0.339 ratio
Sequence = ATATCATAATTAATAGGACTTAGTCTCCATTAACCCCCAAAATAACATCAAAATAGTCTCCCAAAAATATAATTGATTTTTATGAGAACTTAATGTAAACATGCAACAAGAGATCCACTCTCAACCCTTCATGTAAACACATCTGTTGCTAATCATACGTTCAGAATCCCTTGCTTAGAGTATAGGCATAGTC; value = 0.354 ratio
Sequence = TATGAATTACAAACATTAAAATTGGCTACAACTCCTCTTCAACCAATTACTAACAAGAAGCACCTAAAAGGTCAAAATCATGAAACACCAAAGTAAACAGACATGTGTGCACCTTTTGCTAAATACCAGTCACATAATCCAACATGTATTCATTATATTTTTGACACTAGGAAATAGTTTAAACCTTGGTTTA; value = 0.412 ratio

Block 2 — target: CCNB3, cyclin fold, Cln2 fusion (human); method: yeast growth competition, sequencing; medium: yeast; setting: weak parent motif; reference: not given; direction: higher = stronger binding; endpoint: normalised enrichment score
Parent: WEE1 docking peptide (human); HKTFRKLRLFDTP; partner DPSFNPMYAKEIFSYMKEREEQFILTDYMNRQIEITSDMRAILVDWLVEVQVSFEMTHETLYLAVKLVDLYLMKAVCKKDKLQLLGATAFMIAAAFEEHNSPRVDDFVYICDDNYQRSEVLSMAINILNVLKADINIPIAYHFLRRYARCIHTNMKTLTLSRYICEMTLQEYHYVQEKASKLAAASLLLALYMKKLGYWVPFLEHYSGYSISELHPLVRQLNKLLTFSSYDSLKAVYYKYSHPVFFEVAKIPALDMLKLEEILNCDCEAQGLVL
Change = HKTFRKLRLFPTP [D11P]; value = 0.616
Change = EKTFRKLRLFDTP [H1E]; value = 0.278
Change = HKTFMKLRLFDTP [R5M]; value = 0.315
Change = FKTFRKLRLFDTP [H1F]; value = -0.17
Change = HNTFRKLRLFDTP [K2N]; value = 0.185
Change = HKTFRKLTLFDTP [R8T]; value = 0.297
Change = HKTFRKLRPFDTP [L9P]; value = 0.0224
Change = HKTFRKLRMFDTP [L9M]; value = -0.0969
Change = HKDFRKLRLFDTP [T3D]; value = -0.0737
Change = HMTFRKLRLFDTP [K2M]; value = -0.138
Change = HKYFRKLRLFDTP [T3Y]; value = -1.28
Change = HDTFRKLRLFDTP [K2D]; value = 0.473
Change = DKTFRKLRLFDTP [H1D]; value = 0.691
Change = HKTFRKLRLLDTP [F10L]; value = -0.182
Change = HKTFRKLDLFDTP [R8D]; value = -0.0337
Change = HKTFRKLRIFDTP [L9I]; value = -0.0594
Change = HKTFRKLRLEDTP [F10E]; value = 0.525
Change = HKTFRKLRAFDTP [L9A]; value = 0.363
Change = HKEFRKLRLFDTP [T3E]; value = -0.203
Change = HKTKRKLRLFDTP [F4K]; value = 0.385

Block 3 — method: protein-binding microarray; molecule type: double-stranded DNA, one strand shown; medium: in vitro; concentration: 2540 nM top; setting: 60-bp whole probe; added: salmon DNA 0.4 mg/ml; reference: random background probes; direction: higher = stronger binding; endpoint: fitted relative affinity; shared flanks, not repeated: GCCTAGCAC … GTCTTGATTCGCTTGACGCTGCTG
Target: Interferon regulatory factor 3, full length, phosphomimetic (IRF3, Homo sapiens, UniProt Q14653, residues 1-427, S386D/S396D/S398D/S402D/T404D/S405D)
Residues (chain): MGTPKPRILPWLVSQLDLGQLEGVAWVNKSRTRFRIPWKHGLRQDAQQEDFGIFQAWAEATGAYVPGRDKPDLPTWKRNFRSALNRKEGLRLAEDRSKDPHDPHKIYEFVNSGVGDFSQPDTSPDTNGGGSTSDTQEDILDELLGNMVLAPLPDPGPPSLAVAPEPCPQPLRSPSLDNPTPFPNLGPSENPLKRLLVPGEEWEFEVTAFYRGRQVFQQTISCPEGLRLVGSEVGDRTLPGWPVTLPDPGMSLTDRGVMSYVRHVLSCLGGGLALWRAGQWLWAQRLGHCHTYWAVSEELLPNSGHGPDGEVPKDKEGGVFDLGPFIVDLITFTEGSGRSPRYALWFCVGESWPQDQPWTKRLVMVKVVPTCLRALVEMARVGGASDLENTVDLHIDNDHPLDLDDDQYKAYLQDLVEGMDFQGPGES
Sequence = TTAGGTCTCCTTACCCTTTAGTGCTAG; value = 1.97 z-score
Sequence = TTAGGTATCCTACTGCTTGAGTGCTAG; value = 2.6 z-score
Sequence = GACGAAATCGGGTTTCGAGACGTGCTA; value = 1.15 z-score
Sequence = CCAGTGCTGCTTTGTCAAGAGTGCTAG; value = -0.161 z-score
Sequence = TCAGCTTTGCCTTTTGCACTGTGCTAG; value = 0.376 z-score
Sequence = TCAGGTTTCCAAATTGTACTGTGCTAG; value = 6.65 z-score
Sequence = TTAGGTATCGGTATCGGATAGTGCTAG; value = 5.18 z-score
Sequence = TGTGTTTTAAATAGGGCAAAGTGCTAG; value = 0.187 z-score
Sequence = GACGGTATCGGGTTTGGGGACGTGCTA; value = 2.28 z-score
Sequence = TTAGATTTCGGGACTGTATTAGTGCTA; value = 1.28 z-score
Sequence = GACGGTTTTCTTATCCTGACGTGCTAG; value = 3.17 z-score
Sequence = GACGGTTTCGGGTCCGGGACGTGCTAG; value = 4.95 z-score
Sequence = GACGTTTTCAGTCTCGAGACGTGCTAG; value = 2.93 z-score
Sequence = GACGATTCCGGTTTCGAGACGTGCTAG; value = 4.09 z-score
Sequence = TTAGGTATCGGGCTCGGTTAGTGCTAG; value = 0.68 z-score
Sequence = TTAGGACTGGGTTTCGGTTGGTGCTAG; value = 2.06 z-score
Sequence = TCAGGCTTCATGTTGCTCACTGTGCTA; value = -0.542 z-score
Sequence = GACGGTATCGACTAGCGGGACGTGCTA; value = 0.358 z-score
Sequence = GACGGTTTCGCGTATCGGGACGTGCTA; value = 2.38 z-score

Block 4 — Molecule: B1 (RNF25 RING domain); method: yeast two-hybrid; medium: yeast; setting: mostly zero background; reference: not given; direction: higher = stronger interaction; endpoint: lacZ reporter activity
B1: RNF25 RING domain (UniProt Q96BH1); chain LTDNNIPHGQCVICLYGFQEKEAFTKTPCYHYFHCHCLARYIQHMEQELKAQGQEQEQERQHATTKQKAVGVQCPVCREPLVYDLASL
target = UBE2U UBC core domain (UniProt Q5VVX9); value = 7590
target = UBE2L6 UBC core domain (UniProt O14933); value = 3720
target = UBE2N UBC core domain (UniProt P61088); value = 0
target = UBE2E2 UBC core domain (UniProt Q96LR5); value = 0
target = UBE2D3 UBC core domain (UniProt P61077); value = 7720

A few entries again (block 3):
Sequence = TTAGGTCTCCTTACCCTTTAGTGCTAG; value = 1.97 z-score
Sequence = CCAGTGCTGCTTTGTCAAGAGTGCTAG; value = -0.161 z-score
Sequence = TTAGGTATCGGGCTCGGTTAGTGCTAG; value = 0.68 z-score
Sequence = GACGGTTTCGGGTCCGGGACGTGCTAG; value = 4.95 z-score
Sequence = TCAGCTTTGCCTTTTGCACTGTGCTAG; value = 0.376 z-score
Sequence = TCAGGCTTCATGTTGCTCACTGTGCTA; value = -0.542 z-score
Sequence = TCAGGTTTCCAAATTGTACTGTGCTAG; value = 6.65 z-score
Sequence = GACGTTTTCAGTCTCGAGACGTGCTAG; value = 2.93 z-score
